Experimental data pooled from the literature.
Lines come from different studies, so protocols differ. Values joined by “and” are separate records of one study, mostly repeats; a detail may differ. ± marks the error that the study gave.

SMILES	test	test system	conditions	how to read	measurement	result
CCCC[C@H](NC(=O)CNC(=O)CNC(=O)c1ccc(NN)nc1)C(=O)N[C@H]1CC(=O)NCCCC[C@@H](C(N)=O)NC(=O)[C@H](Cc2c[nH]c3ccccc23)NC(=O)[C@H](CCCNC(=N)N)NC(=O)[C@@H](Cc2ccccc2)NC(=O)[C@H](Cc2c[nH]cn2)NC1=O [technetium-99m labelled]		C57 mouse, B16/F1 melanoma	2 h, added: NDP-MSH blockade	baseline: tumour over muscle	uptake ratio	15
CCCC[C@H](NC(=O)[C@H](Cc1cccs1)NC(=O)[C@H](Cc1c[nH]cn1)NC(=O)CCNC(=O)[C@@H](NC(=O)[C@H](C)NC(=O)[C@H](Cc1c[nH]c2ccccc12)NC(=O)[C@H](CCC(N)=O)NC(=O)[C@H](Cc1cccs1)NC(=O)CN1CCC(NC(=O)CN(CCN(CCN(CC(=O)O)CC(=O)O)CC(=O)O)CC(=O)O)CC1)C(C)C)C(N)=O [indium-111 labelled]	radio-HPLC	Swiss nu/nu mice, blood	intravenous, 1 nmol, 15 min		intact peptide	2.6% and 3.1%
N=C(N)NCCC[C@@H]1NC(=O)[C@H](CCCCNC(=O)CCOCCOCCOCCOCCNC(=O)CC[C@H](NC(=O)CCOCCOCCOCCOCCNC(=O)CC[C@H](NC(=O)CN2CCN(CC(=O)O)CCN(CC(=O)O)CCN(CC(=O)O)CC2)C(=O)NCCOCCOCCOCCOCCC(=O)N[C@@H](CCC(=O)NCCOCCOCCOCCOCCC(=O)NCCCC[C@@H]2NC(=O)[C@@H](Cc3ccccc3)NC(=O)[C@H](CC(=O)O)NC(=O)CNC(=O)[C@H](CCCNC(=N)N)NC2=O)C(=O)NCCOCCOCCOCCOCCC(=O)NCCCC[C@@H]2NC(=O)[C@@H](Cc3ccccc3)NC(=O)[C@H](CC(=O)O)NC(=O)CNC(=O)[C@H](CCCNC(=N)N)NC2=O)C(=O)NCCOCCOCCOCCOCCC(=O)NCCCC[C@@H]2NC(=O)[C@@H](Cc3ccccc3)NC(=O)[C@H](CC(=O)O)NC(=O)CNC(=O)[C@H](CCCNC(=N)N)NC2=O)NC(=O)[C@@H](Cc2ccccc2)NC(=O)[C@H](CC(=O)O)NC(=O)CNC1=O [indium-111 labelled]		athymic nude mice, female, U-87 MG glioma xenograft, U-87 MG tumour	intravenous, 3 µCi, 1 h		tissue uptake	11.1 ± 2.38 %ID/g
CC(ON1C(C)(C)CCCC1(C)C)c1ccc(NC(=O)[C@@H](NC(=O)[C@@H]2CCCN2C(=O)[C@H](C)NC(=O)[C@H](C)NC(=O)CCC(=O)O)C(C)C)cc1 (stereo partly shown)	EPR	buffer	37 °C, no HNE		stability time	≥ 16 h
N=C(N)NCCC[C@@H]1NC(=O)[C@H](CCCCNC(=O)CNC(=O)CNC(=O)CNC(=O)CC[C@H](NC(=O)CCOCCOCCOCCOCCNC(=O)CC[C@H](NC(=O)CN2CCN(CC(=O)O)CCN(CC(=O)O)CCN(CC(=O)O)CC2)C(=O)NCCOCCOCCOCCOCCC(=O)N[C@@H](CCC(=O)NCC(=O)NCC(=O)NCC(=O)NCCCC[C@@H]2NC(=O)[C@@H](Cc3ccccc3)NC(=O)[C@H](CC(=O)O)NC(=O)CNC(=O)[C@H](CCCNC(=N)N)NC2=O)C(=O)NCC(=O)NCC(=O)NCC(=O)NCCCC[C@@H]2NC(=O)[C@@H](Cc3ccccc3)NC(=O)[C@H](CC(=O)O)NC(=O)CNC(=O)[C@H](CCCNC(=N)N)NC2=O)C(=O)NCC(=O)NCC(=O)NCC(=O)NCCCC[C@@H]2NC(=O)[C@@H](Cc3ccccc3)NC(=O)[C@H](CC(=O)O)NC(=O)CNC(=O)[C@H](CCCNC(=N)N)NC2=O)NC(=O)[C@@H](Cc2ccccc2)NC(=O)[C@H](CC(=O)O)NC(=O)CNC1=O [indium-111 labelled]		athymic nude mice, female, U-87 MG glioma xenograft, U-87 MG tumour	intravenous, 3 µCi, 4 h		tissue uptake	9.5 ± 2.13 %ID/g
CSCC[C@H](NC(=O)[C@H](CC(C)C)NC(=O)[C@H](Cc1c[nH]cn1)NC(=O)CNC(=O)[C@@H](NC(=O)[C@H](C)NC(=O)[C@H](Cc1c[nH]c2ccccc12)NC(=O)[C@H](CCC(N)=O)NC(=O)CNC(=O)[C@H](CO)NC(=O)CNC(=O)CCCCCCCNC(=O)CCC(=O)Nc1ccc(CNC23CNCCNCC(N)(CNCCNC2)CNCCNC3)cc1)C(C)C)C(N)=O [copper-64 labelled]		female SCID mice, PC-3 xenograft, liver	intravenous, 0.6 MBq, 4 h		tissue uptake	2.96 ± 0.138 %ID/g
CCCC[C@H](NC(=O)CCCCCCCNC(=O)c1ccc(NN)nc1)C(=O)N[C@H]1CC(=O)NCCCC[C@@H](C(N)=O)NC(=O)[C@H](Cc2c[nH]c3ccccc23)NC(=O)[C@H](CCCNC(=N)N)NC(=O)[C@@H](Cc2ccccc2)NC(=O)[C@H](Cc2c[nH]cn2)NC1=O [technetium-99m labelled]		C57 mouse, B16/F1 melanoma, heart	intravenous, 24 h		uptake	0.07 ± 0.02 %ID/g
CSCC[C@H](NC(=O)[C@H](CC(C)C)NC(=O)[C@H](Cc1c[nH]cn1)NC(=O)CNC(=O)[C@@H](NC(=O)[C@H](C)NC(=O)[C@H](Cc1c[nH]c2ccccc12)NC(=O)[C@H](CCC(N)=O)NC(=O)CCCCCNC(=O)CNC(=O)CNC(=O)CNC(=O)CSC(C)=O)C(C)C)C(N)=O [technetium-99m labelled]		healthy Swiss mouse, stomach, contents removed	intravenous, 18.5 MBq, 5 min		tissue uptake	1.49 ± 0.2 %ID/g
N=C(N)NCCC[C@@H]1NC(=O)[C@H](CCCCNC(=O)CNC(=O)CNC(=O)CNC(=O)CC[C@H](NC(=O)CNC(=O)CNC(=O)CNC(=O)[C@H](CCCCNC(=O)c2ccc(NN)nc2)NC(=O)c2ccc(NN)nc2)C(=O)NCC(=O)NCC(=O)NCC(=O)NCCCC[C@@H]2NC(=O)[C@@H](Cc3ccccc3)NC(=O)[C@H](CC(=O)O)NC(=O)CNC(=O)[C@H](CCCNC(=N)N)NC2=O)NC(=O)[C@@H](Cc2ccccc2)NC(=O)[C@H](CC(=O)O)NC(=O)CNC1=O [technetium-99m labelled]		female athymic nude mice	intravenous, 1 h, U-87 MG glioma xenograft	baseline: tumour over blood	tissue ratio	10.9 ± 0.82
N=C(N)NCCC[C@@H]1NC(=O)[C@H](CCCCNC(=O)CCOCCOCCOCCOCCNC(=O)CN2CCN(CC(=O)O)CCN(CC(=O)O)CCN(CC(=O)O)CC2)NC(=O)[C@@H](Cc2ccccc2)NC(=O)[C@H](CC(=O)O)NC(=O)CNC1=O [indium-111 labelled]		female athymic nude mice, brain	intravenous, 3 µCi, 0.5 h, U-87 MG glioma xenograft		tissue uptake	0.27 ± 0.02 %ID/g
